Experimental data collected from several papers.
Each line is one published result; not all experiments were run side by side. ± gives the spread as reported.
Rhomboid protease AarA: Rhomboid protease AarA (Providencia stuartii, UniProt P46116)
Sequence of UniProt P46116 (whole entry, looked up): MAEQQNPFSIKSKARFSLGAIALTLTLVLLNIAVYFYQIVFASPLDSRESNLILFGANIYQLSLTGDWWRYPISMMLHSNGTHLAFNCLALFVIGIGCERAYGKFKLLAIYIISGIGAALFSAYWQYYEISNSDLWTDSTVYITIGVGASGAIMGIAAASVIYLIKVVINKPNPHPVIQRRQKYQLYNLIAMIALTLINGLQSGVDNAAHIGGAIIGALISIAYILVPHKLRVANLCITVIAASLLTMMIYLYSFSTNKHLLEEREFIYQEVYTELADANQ
IL1RL2: Interleukin-1 receptor-like 2 (IL1RL2, Homo sapiens, UniProt Q9HB29)
Sequence of UniProt Q9HB29 (whole entry, looked up): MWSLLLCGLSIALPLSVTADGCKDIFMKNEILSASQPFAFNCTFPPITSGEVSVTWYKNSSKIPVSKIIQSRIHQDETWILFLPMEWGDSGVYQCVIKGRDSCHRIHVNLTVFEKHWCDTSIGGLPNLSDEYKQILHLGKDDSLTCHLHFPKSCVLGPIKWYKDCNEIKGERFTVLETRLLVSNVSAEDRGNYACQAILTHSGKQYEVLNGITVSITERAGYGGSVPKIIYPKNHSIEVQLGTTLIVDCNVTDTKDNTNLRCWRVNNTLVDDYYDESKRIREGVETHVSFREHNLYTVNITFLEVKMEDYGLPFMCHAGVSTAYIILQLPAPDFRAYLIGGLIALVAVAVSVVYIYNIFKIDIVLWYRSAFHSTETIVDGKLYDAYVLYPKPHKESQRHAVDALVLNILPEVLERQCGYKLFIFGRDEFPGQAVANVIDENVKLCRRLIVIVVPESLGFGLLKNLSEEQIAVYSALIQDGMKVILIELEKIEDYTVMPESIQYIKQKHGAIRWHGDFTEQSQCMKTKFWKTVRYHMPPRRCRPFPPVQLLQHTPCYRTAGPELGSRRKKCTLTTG
KDM1A: Lysine-specific histone demethylase 1A (KDM1A, Homo sapiens, UniProt O60341)
Sequence of UniProt P12295 (whole entry, looked up): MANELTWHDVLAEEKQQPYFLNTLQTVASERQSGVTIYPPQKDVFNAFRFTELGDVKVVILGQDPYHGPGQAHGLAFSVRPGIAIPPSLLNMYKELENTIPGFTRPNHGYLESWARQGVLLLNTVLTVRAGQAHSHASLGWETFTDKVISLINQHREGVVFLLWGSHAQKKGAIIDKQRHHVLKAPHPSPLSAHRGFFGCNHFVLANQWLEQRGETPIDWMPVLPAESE
Sequence of UniProt P28482 (whole entry, looked up): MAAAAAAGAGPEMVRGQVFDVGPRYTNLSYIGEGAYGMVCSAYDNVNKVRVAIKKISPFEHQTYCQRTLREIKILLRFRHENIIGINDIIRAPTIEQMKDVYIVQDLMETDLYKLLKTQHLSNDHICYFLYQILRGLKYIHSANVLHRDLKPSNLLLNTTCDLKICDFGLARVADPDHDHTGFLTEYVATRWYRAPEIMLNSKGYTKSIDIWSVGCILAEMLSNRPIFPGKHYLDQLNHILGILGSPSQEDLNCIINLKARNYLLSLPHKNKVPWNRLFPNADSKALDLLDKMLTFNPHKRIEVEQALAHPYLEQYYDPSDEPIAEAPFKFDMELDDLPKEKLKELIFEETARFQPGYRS
Sequence of UniProt P07711 (whole entry, looked up): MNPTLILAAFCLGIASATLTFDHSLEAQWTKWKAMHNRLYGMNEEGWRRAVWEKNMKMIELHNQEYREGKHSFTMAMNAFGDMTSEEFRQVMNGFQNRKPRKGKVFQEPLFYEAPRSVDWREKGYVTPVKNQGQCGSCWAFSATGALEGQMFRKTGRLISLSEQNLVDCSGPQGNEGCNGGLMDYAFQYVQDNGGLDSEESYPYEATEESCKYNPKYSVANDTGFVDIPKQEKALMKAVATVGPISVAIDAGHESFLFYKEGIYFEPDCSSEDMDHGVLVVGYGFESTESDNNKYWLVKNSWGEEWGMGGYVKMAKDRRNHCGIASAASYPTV
Sequence of UniProt P10721 (whole entry, unmodified, looked up): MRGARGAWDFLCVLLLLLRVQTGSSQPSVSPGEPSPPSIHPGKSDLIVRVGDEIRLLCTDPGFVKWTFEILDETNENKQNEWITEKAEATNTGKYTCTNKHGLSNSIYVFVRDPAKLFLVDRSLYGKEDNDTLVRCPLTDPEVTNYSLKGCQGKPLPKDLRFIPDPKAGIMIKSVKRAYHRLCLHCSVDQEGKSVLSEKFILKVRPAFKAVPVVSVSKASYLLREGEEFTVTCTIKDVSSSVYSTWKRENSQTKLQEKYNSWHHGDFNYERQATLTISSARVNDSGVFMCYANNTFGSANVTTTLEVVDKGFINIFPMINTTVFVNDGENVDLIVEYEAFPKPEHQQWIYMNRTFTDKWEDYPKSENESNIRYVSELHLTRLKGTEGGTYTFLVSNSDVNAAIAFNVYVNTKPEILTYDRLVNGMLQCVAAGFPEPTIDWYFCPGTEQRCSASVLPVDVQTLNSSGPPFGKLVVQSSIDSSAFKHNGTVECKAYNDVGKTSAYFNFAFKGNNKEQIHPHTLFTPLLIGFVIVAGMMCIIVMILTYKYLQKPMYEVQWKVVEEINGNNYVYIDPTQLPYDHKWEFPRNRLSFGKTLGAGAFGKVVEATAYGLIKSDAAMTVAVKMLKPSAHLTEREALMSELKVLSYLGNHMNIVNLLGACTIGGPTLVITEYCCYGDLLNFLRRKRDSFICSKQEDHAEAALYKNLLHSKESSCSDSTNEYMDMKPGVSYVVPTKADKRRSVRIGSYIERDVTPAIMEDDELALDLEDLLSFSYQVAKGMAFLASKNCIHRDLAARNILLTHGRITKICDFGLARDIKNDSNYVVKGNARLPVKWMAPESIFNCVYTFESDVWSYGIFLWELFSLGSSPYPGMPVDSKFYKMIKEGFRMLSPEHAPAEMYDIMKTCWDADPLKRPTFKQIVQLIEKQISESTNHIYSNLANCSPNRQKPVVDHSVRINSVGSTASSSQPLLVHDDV

For `O=C1CC(c2ccccc2Cl)N1S(=O)(=O)c1cccc(Cl)c1` (stereo not shown), the remaining activity was 59% (Rhomboid protease AarA; enzyme activity, inhibitor; 100 µM).
For `CC(C)[C@@H]1NC(=O)[C@H](Cc2ccccc2)NC(=O)CSC[C@@H](C(N)=O)NC(=O)[C@H](CCC(=O)O)NC(=O)[C@H](CO)NC(=O)[C@H](Cc2c[nH]c3cccc(Cl)c23)NC(=O)[C@H](C2CCCCC2)NC(=O)[C@H](C(C)C)NC(=O)[C@H](Cc2ccc(O)cc2)NC(=O)[C@H](CC(=O)O)NC(=O)[C@H](Cc2c[nH]c3ccccc23)NC(=O)[C@H](Cc2ccc(N)nc2)NC(=O)[C@H](Cc2c[nH]c3ccc(Cl)cc23)NC(=O)[C@H](CCC(=O)O)NC1=O`, the remaining activity was 97.9% (IL1RL2; reporter gene (SEAP), inhibitor, HEK-Blue IL-36R reporter; HEK-Blue IL-36R cells; 0.14 µM, 6 h, with: IL-36β 10 ng/mL).
`O=C(Nc1nncs1)c1cccc([C@@H]2C[C@H]2NC2CCC2)c1` gave a remaining activity of 104% (KDM1A; demethylase activity, inhibitor, Amplex Red; 0.0009145 µM, with: H3K4me2 peptide; relative to: vehicle).
The remaining activity of `COC(=O)CN1CCCc2cc3cc(C(=O)NC(Cc4cccc(Cl)c4)C(=O)NCC=CS(=O)(=O)c4ccccc4)c(=O)oc3cc21` (stereo not shown) is reported as 6% (Procathepsin L (CTSL, Homo sapiens, UniProt P07711); inhibitor; 5 µM, 60 min, with: Z-Phe-Arg-pNA; relative to: uninhibited control).
The remaining activity of `COc1ccccc1-c1ccncc1C(=O)Nc1ccc(OCc2ccc(Cl)cc2)nn1` is reported as 99% (DNA polymerase theta, helicase domain (POLQ, Homo sapiens, UniProt O75417); ATPase activity, ADP-Glo; 0.004 µM; relative to: 0 µM cpd).
For `N#Cc1cnc2sc(C(=O)O)cc2c1N1CCc2[nH]nc(C(=O)N[C@@H](CC(=O)NCCOCCN3CCOCC3)c3cccc(Br)c3)c2C1`, the remaining activity was 84.8% (IL1RL2; SEAP reporter gene, antagonist; HEK-Blue IL-36R cells; 0.005 µM, 6 h, with: IL-36 0.003 ng/mL; relative to: untreated).
The remaining activity of `Cc1nnc(NC(=O)c2cc([C@@H]3C[C@H]3NC3CCC3)ccc2Br)s1` (relative stereo) is reported as 95.1% (KDM1A; demethylase activity, inhibitor, Amplex Red; 0.009145 µM, with: H3K4me2 peptide; relative to: vehicle).
The remaining activity of `CC1C(=O)N(S(=O)(=O)c2ccccc2)C1c1ccccc1` (stereo not shown) is reported as 95% (Rhomboid protease AarA; substrate cleavage, gel-based; 100 µM; relative to: DMSO).
For `COC(=O)[C@@]1(C)C=C(C(=O)Nc2cccc(C(=O)Nc3ccc(Nc4nccc(-c5cccnc5)n4)c(C)c3)c2)C(=O)CC1`, the remaining activity was 0.99 (MAPK1 (Homo sapiens, UniProt P28482); kinase activity, inhibitor; 0.02032 µM, unit not given; relative to: no inhibitor).
For `CNC(=O)c1cccc([C@@H]2C[C@H]2NC2CCC2)c1` (racemic), the remaining activity was 91.8% (KDM1A; demethylase activity, inhibitor; 0.06859 µM, with: H3K4me2 peptide).
For `NC(=O)c1ccc2nc(CN3CCCC3c3ccco3)cc(O)c2c1` (stereo not shown), the remaining activity was 108 ± 4% (ung (Escherichia coli, UniProt P12295); enzyme activity, inhibitor; concentration not given, counter-screen).
With `COC(=O)c1cccc([C@@H]2C[C@H]2NC2CCC2)c1` the remaining activity was 93% (KDM1A; demethylase activity, inhibitor; 0.2058 µM, with: H3K4me2 peptide).
The remaining activity of `COc1cc(Nc2nc(C)cc(-c3cnn4nc(OC)ccc34)n2)cc(C(F)(F)F)c1` is reported as 89% (KIT (Homo sapiens, UniProt P10721); inhibitor; 1 µM; relative to: control).

Repeated from above:
For `COC(=O)[C@@]1(C)C=C(C(=O)Nc2cccc(C(=O)Nc3ccc(Nc4nccc(-c5cccnc5)n4)c(C)c3)c2)C(=O)CC1`, the remaining activity was 0.99 (MAPK1 (Homo sapiens, UniProt P28482); kinase activity, inhibitor; 0.02032 µM, unit not given; relative to: no inhibitor).
